# Assay results gathered from unrelated publications.
# Each numbered part is a random draw from the data of one study; scales do not carry over between parts. Changes are numbered by the printed parent chain.

# Block 1
# Target: Histone acetyltransferase KAT6A, winged helix 2, GST fusion (KAT6A, Homo sapiens, UniProt Q92794, residues 85-181)
# Method: protein binding microarray
# Form: double-stranded DNA, one strand shown
# Medium: in vitro
# Concentration: not given
# Setting: 8-mer, flanks averaged, mean of 2 arrays, mostly near background
# Relative to: not given
# Direction: higher = stronger binding
# Construct (chain): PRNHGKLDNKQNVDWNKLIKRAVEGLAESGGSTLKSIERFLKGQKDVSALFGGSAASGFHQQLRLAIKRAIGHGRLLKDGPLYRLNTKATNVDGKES
Oligonucleotide,E-score
CATTGGGA,-0.134
CAGCACTA,-0.0086
GACATATA,-0.0761
ACGGTGGA,-0.109
CGCGTGTC,0.241
AGTGGTTG,0.0864
ACTGGCAC,-0.0503
CCGACGTC,0.0662
GATCATGA,-0.152
ACGGCTGA,0.0527
CAGCAACC,0.124
CAAGGCTC,-0.0766
GCTAATGA,-0.159
ATGATGCC,0.123
ACTTTCAA,0.134
GTCAGGCA,0.0888
ATTAAGGC,-0.0174
AAGGTGCT,-0.133
TATAAAGA,0.117

# Block 2
# Target: CCNE1, cyclin fold, Cln2 fusion (human)
# Method: yeast growth competition, sequencing
# Medium: yeast
# Setting: strong parent motif
# Relative to: not given
# Direction: higher = stronger binding
# Starting sequence: GMNC docking peptide (human); KNAKRNLSSEFAN
Variant,normalised enrichment score
KNAKRNQSSEFAN [L7Q],0.201
KNAKRHLSSEFAN [N6H],-0.196
KNAKRNLSSEFLN [A12L],0.927
KNAKRKLSSEFAN [N6K],0.162
KNAKRNLSDEFAN [S9D],1.67
KRAKRNLSSEFAN [N2R],1.22
KNAKRNYSSEFAN [L7Y],-0.0324
KNAQRNLSSEFAN [K4Q],0.417
KNAKRNLISEFAN [S8I],2.77

# Block 3
# Target: Fragile X messenger ribonucleoprotein 1, C-terminal low-complexity region (Fmr1, Mus musculus, UniProt P35922)
# Method: RNA Bind-n-Seq
# Form: RNA
# Medium: in vitro
# Concentration: 200 nM
# Setting: whole 134-nt RNA, ends assumed
# Together with: 150 mM KCl
# Relative to: input library
# Direction: higher = stronger binding
# All sequences stand within: GGGAGUUCUACAGUCCGACGAUC … UGGAAUUCUCGGGUGUCAAGG
Oligonucleotide,log2 enrichment
AGUCCUGUGCUACACAUCGUAUGUACCGAAUCGGGCCCCCGGGCCCCCGGCCCCCGGGAAAGUAUUAUGUUACGCCGUUCGGAUCUGCAC,-0.889
CCUGUGCUACACAUCGUAUGUACCGAAUCGGGGUUUUUUGGGUUUUUUGGGGUUUUUUGGAAAGUAUUAUGUUACGCCGUUCGGAUCUGC,-0.198
GUCCUGUGCUACACAUCGUAUGUACCGAAUCGGGGAAAAAGGGGAAAAAGGGGAGGGGAAAGUAUUAUGUUACGCCGUUCGGAUCUGCAC,0.534
UCCCAAUGCUCGGAGGAAGCCCAAGGGCAGCCCUCGUGUACCUGAUGCCAAGAAGCCUAAACCCAAGAAAGUAGCUCCCCUGAAAAUCAA,0.372
CUCAAGUCCUGUGCUACACAUCGUAUGUACCGAAUCGGUUGGGUUGGGGUUGGAAAGUAUUAUGUUACGCCGUUCGGAUCUGCACUUCCA,0.0873
CACAGACAACACGCACCCACACAGACACAGAGGGAAGAAAUUGGGAUGGGGACAGGGUGCACAGCAGGGCGGGGUAGGACCCCAGCCCCU,0.525
UGGGAGGUGGAUUUUGUUUAUUUUUUUAGCUCAGUUCCAGGGGUGGGAAUUUUUUUUUAAUAUGUGUCAUGAAUAAAGUUGUUUUUGAAA,0.329
UCAAGUCCUGUGCUACACAUCGUAUGUACCGAAUCGGUUUUUUUGGUGGUUUGGAAAGUAUUAUGUUACGCCGUUCGGAUCUGCACUUCC,-0.716

# Block 4
# Target: Prothrombin, mature alpha-thrombin (F2, Homo sapiens, UniProt P00734)
# Method: aptamer microarray, sandwich
# Form: DNA with 2'F-ANA
# Medium: in vitro
# Concentration: 200 nM
# Setting: whole 15-mer aptamer, many near background
# Together with: Cy3 exosite-II aptamer, 400 nM
# Direction: higher = stronger binding
# Oligonucleotide: GGTTGGTGTGGTTGG
Modification,mean fluorescence intensity [a.u.]
2'F-ANA at 1 8 10 12 13 14,46.4
2'F-ANA at 3 5 6 7 8 10 12 14,54.8
2'F-ANA at 2 3 4 5 6 7 8 9 10 14 15,55.8
2'F-ANA at 1 2 4 6 7 9 14,54.1
2'F-ANA at 3 9 10 11 13,444
2'F-ANA at 5 6 7 9 11 13 15,54.5
2'F-ANA at 4 5 7 8 11 12 14,48.1
2'F-ANA at 6 7 9 10 11 12 14 15,104
2'F-ANA at 3 4 6 7 11 12 15,740
2'F-ANA at 1 6 9 10 13 14,44.5

# A few entries again (block 3):
Oligonucleotide,log2 enrichment
UGGGAGGUGGAUUUUGUUUAUUUUUUUAGCUCAGUUCCAGGGGUGGGAAUUUUUUUUUAAUAUGUGUCAUGAAUAAAGUUGUUUUUGAAA,0.329
CCUGUGCUACACAUCGUAUGUACCGAAUCGGGGUUUUUUGGGUUUUUUGGGGUUUUUUGGAAAGUAUUAUGUUACGCCGUUCGGAUCUGC,-0.198
CACAGACAACACGCACCCACACAGACACAGAGGGAAGAAAUUGGGAUGGGGACAGGGUGCACAGCAGGGCGGGGUAGGACCCCAGCCCCU,0.525
UCCCAAUGCUCGGAGGAAGCCCAAGGGCAGCCCUCGUGUACCUGAUGCCAAGAAGCCUAAACCCAAGAAAGUAGCUCCCCUGAAAAUCAA,0.372
AGUCCUGUGCUACACAUCGUAUGUACCGAAUCGGGCCCCCGGGCCCCCGGCCCCCGGGAAAGUAUUAUGUUACGCCGUUCGGAUCUGCAC,-0.889
GUCCUGUGCUACACAUCGUAUGUACCGAAUCGGGGAAAAAGGGGAAAAAGGGGAGGGGAAAGUAUUAUGUUACGCCGUUCGGAUCUGCAC,0.534
CUCAAGUCCUGUGCUACACAUCGUAUGUACCGAAUCGGUUGGGUUGGGGUUGGAAAGUAUUAUGUUACGCCGUUCGGAUCUGCACUUCCA,0.0873
